{"data": "Measured values pooled from the literature", "note": "A part holds a random share of what one study measured. Changes are numbered by the printed parent chain.", "UniProt P49841, sequence (whole entry, looked up)": "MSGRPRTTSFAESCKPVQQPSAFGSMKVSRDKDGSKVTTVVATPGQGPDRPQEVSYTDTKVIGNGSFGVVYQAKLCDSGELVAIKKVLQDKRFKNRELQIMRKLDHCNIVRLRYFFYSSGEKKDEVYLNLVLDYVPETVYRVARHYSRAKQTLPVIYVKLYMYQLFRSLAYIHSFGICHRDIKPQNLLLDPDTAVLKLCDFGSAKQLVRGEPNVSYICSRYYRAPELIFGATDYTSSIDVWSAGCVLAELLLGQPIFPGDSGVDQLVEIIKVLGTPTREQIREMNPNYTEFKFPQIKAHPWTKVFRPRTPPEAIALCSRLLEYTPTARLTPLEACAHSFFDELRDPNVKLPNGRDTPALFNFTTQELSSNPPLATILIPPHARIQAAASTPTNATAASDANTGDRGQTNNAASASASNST", "UniProt P06239, sequence (whole entry, looked up)": "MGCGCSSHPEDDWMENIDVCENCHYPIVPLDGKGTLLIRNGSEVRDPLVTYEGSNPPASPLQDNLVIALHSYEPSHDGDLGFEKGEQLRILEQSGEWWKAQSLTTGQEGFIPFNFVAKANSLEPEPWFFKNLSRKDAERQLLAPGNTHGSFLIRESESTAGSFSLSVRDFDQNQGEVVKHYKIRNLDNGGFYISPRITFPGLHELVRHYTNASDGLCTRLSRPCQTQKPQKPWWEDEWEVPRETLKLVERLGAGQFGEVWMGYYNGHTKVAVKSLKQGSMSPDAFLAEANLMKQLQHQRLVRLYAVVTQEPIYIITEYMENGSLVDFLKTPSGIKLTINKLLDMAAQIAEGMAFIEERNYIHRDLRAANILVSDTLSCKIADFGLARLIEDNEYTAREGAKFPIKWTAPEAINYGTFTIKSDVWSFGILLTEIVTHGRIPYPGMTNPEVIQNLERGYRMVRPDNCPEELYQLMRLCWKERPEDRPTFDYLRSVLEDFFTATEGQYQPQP", "UniProt Q09013, sequence (whole entry, looked up)": "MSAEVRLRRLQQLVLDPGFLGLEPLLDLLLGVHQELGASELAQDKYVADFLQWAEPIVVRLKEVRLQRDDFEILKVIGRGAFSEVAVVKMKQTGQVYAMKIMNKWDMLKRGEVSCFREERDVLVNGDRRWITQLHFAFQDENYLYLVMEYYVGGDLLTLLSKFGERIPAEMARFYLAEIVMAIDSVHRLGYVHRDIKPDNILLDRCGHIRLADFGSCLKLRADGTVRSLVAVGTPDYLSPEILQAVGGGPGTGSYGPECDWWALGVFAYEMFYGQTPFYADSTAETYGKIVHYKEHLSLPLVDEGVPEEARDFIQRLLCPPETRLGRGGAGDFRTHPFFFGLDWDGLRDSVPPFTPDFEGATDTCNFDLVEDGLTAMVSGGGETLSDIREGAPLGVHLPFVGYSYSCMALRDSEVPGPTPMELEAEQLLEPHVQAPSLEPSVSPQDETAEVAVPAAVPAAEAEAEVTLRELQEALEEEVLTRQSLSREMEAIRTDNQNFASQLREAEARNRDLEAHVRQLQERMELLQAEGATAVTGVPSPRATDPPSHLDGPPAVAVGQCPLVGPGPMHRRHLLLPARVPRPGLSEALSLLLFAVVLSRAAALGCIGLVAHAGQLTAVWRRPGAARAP", "UniProt P51956, sequence (whole entry, looked up)": "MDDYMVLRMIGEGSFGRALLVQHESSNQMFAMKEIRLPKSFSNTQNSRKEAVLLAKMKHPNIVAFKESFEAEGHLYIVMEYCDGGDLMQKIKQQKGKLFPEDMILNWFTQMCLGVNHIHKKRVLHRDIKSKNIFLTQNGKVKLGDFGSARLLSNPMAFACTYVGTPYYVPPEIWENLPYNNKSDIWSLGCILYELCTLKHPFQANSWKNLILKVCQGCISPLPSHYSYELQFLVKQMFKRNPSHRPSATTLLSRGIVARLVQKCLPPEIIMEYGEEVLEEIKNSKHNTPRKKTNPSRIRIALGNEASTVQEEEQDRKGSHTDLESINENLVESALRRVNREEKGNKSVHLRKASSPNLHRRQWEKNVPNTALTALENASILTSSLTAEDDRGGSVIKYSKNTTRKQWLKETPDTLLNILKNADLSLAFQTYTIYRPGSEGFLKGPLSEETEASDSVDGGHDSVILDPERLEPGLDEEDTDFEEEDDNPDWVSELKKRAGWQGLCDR", "UniProt O75460, sequence (whole entry, looked up)": "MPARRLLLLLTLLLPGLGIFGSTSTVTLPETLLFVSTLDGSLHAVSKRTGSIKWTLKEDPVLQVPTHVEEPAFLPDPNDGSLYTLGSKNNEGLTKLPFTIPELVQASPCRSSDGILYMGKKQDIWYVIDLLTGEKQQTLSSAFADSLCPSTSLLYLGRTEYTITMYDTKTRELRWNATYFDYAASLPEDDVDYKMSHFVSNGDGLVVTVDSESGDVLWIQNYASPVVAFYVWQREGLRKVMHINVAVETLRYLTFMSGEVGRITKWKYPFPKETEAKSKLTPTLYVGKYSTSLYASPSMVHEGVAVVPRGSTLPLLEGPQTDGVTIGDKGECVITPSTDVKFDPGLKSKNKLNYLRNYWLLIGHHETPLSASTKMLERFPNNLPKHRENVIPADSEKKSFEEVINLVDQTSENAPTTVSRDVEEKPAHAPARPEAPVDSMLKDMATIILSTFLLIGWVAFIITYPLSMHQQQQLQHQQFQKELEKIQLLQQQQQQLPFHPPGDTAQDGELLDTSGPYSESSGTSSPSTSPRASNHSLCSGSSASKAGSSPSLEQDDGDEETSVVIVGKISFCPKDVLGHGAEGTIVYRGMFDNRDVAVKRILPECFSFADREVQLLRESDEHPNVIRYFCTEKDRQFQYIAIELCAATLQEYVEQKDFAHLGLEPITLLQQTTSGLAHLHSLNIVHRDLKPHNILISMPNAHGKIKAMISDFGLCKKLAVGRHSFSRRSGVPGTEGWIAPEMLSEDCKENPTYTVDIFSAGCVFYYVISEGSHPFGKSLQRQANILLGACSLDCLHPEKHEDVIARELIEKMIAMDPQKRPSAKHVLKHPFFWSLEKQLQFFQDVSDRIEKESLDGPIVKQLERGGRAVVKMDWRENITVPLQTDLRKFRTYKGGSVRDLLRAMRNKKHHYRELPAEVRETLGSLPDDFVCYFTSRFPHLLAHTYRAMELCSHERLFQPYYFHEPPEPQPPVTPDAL", "UniProt Q8IYT8, sequence (whole entry, looked up)": "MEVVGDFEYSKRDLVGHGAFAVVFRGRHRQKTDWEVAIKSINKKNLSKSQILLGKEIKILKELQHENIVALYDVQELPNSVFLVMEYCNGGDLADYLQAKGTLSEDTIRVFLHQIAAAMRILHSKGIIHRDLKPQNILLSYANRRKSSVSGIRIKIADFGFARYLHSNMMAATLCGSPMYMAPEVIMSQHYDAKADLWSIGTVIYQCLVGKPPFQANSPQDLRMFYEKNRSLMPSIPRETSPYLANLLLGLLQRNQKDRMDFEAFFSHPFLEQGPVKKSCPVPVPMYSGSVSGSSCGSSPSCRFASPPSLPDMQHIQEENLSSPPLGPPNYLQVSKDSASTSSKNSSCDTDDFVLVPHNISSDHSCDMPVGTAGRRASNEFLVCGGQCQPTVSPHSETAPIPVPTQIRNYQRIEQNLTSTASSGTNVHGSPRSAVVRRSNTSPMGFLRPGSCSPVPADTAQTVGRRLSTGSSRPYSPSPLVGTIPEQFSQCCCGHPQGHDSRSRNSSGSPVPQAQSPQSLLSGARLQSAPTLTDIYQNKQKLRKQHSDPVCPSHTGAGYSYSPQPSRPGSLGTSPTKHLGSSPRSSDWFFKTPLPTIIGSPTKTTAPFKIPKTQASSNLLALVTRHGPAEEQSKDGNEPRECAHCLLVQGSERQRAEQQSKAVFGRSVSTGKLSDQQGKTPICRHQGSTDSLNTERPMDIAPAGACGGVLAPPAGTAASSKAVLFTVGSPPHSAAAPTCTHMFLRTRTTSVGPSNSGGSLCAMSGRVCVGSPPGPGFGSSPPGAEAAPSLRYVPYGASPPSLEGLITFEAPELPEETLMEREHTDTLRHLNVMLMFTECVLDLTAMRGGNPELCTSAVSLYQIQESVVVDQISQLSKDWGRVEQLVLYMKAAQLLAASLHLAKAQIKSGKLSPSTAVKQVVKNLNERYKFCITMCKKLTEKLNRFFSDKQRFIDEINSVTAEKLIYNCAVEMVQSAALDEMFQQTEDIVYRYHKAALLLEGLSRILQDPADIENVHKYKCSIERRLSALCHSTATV", "UniProt Q15759, sequence (whole entry, looked up)": "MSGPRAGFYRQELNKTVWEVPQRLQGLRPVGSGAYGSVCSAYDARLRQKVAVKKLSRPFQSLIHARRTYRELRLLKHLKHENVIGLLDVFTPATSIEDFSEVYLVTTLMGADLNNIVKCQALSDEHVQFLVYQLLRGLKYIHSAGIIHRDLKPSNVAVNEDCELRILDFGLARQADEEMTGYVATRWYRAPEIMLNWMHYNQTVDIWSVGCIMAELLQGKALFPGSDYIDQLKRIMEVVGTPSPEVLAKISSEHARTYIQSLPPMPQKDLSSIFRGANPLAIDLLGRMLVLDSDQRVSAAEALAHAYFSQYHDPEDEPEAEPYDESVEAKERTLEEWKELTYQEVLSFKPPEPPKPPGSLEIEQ", "UniProt P31751, sequence (whole entry, looked up)": "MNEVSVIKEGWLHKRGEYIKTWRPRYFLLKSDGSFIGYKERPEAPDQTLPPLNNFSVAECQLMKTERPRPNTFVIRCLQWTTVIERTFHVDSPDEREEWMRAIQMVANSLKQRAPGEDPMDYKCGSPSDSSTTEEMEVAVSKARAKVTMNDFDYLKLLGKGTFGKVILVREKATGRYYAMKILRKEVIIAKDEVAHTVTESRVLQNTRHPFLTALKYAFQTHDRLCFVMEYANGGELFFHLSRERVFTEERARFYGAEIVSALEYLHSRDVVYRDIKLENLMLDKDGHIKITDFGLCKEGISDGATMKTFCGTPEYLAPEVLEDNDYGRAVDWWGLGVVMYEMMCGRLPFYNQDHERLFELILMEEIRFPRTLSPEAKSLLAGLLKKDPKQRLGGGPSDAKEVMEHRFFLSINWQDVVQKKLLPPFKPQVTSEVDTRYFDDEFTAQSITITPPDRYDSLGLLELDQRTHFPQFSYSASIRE"}
{"data": "Sample 1", "target": "PABPC1L2, full length, GST fusion (mouse, UniProt A0ABA7IW68)", "method": "RNAcompete", "molecule type": "RNA", "medium": "in vitro", "tested at": "20 nM", "notes": "7-mer, probes averaged, single round", "relative to": "mean of 7-mers", "direction": "higher = stronger binding", "Construct (chain)": "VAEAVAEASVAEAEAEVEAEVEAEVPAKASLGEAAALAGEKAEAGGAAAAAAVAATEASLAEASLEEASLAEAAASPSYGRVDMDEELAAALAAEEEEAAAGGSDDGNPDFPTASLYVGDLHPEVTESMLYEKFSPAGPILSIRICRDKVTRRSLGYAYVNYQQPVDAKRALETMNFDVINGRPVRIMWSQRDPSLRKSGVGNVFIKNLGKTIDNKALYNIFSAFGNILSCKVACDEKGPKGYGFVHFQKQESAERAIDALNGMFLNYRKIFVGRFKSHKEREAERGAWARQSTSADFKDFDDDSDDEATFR"}
{"Sequence": "CCUAGCG", "7-mer Z-score": -0.287}
{"Sequence": "AUCUGGA", "7-mer Z-score": 0.000733}
{"Sequence": "CCGCAUU", "7-mer Z-score": -0.298}
{"Sequence": "CACAAAC", "7-mer Z-score": 0.671}
{"Sequence": "AUUCGUU", "7-mer Z-score": -0.378}
{"Sequence": "GACCUAA", "7-mer Z-score": -0.0971}
{"Sequence": "UUAACAC", "7-mer Z-score": -0.139}
{"Sequence": "UUUGGCA", "7-mer Z-score": -0.0808}
{"data": "Sample 2", "target": "ABI1, truncated, D143A, DHFR fusion (Arabidopsis thaliana)", "method": "DHFR PCA, deep sequencing", "medium": "yeast", "notes": "methotrexate growth selection, single substitutions", "added": "(+)-ABA 0 µM", "relative to": "wild-type fitted maximum", "direction": "higher = stronger binding", "starting sequence": "PYL1, truncated, DHFR fusion (Arabidopsis thaliana); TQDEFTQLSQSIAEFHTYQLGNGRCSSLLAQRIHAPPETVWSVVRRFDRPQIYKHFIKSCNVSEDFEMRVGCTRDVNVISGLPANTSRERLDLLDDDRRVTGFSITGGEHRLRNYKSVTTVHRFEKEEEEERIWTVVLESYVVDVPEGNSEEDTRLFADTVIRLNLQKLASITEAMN; partner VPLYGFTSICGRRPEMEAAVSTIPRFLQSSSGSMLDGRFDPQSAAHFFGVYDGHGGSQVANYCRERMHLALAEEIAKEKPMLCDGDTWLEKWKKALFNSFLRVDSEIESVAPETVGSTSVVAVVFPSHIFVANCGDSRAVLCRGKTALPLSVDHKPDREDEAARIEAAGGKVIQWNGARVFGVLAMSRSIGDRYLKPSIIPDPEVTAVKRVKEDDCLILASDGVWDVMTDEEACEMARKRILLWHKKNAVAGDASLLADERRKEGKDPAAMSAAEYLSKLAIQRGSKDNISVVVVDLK"}
{"Substitution": "V143P", "relative binding score [%]": 10}
{"Substitution": "G148F", "relative binding score [%]": -17.7}
{"Substitution": "T73I", "relative binding score [%]": 34.6}
{"Substitution": "E174L", "relative binding score [%]": -0.147}
{"Substitution": "T106C", "relative binding score [%]": 8.2}
{"Substitution": "K54D", "relative binding score [%]": 0.168}
{"Substitution": "V40I", "relative binding score [%]": 5}
{"Substitution": "Q2Y", "relative binding score [%]": 68.7}
{"data": "Sample 3", "Compound": "CNC(=O)Nc1ccc2c(c1)[C@@]1(CC2)OC(=O)N(CC(=O)N(Cc2ccc(F)cc2)[C@@H](C)C(F)(F)F)C1=O", "observed": "cell-free assay", "method": "competition with immobilised ligand", "tested at": "1 µM"}
{"target": "AKT2 (Homo sapiens, UniProt P31751)", "remaining binding [%]": 99}
{"target": "NEK3 (Homo sapiens, UniProt P51956)", "remaining binding [%]": 69}
{"target": "HCK (Homo sapiens, UniProt P08631)", "remaining binding [%]": 100}
{"target": "NEK5 (Homo sapiens, UniProt Q6P3R8)", "remaining binding [%]": 95}
{"target": "FLT3 (Homo sapiens, UniProt P36888, D835V/ITD)", "remaining binding [%]": 87}
{"target": "DMPK (Homo sapiens, UniProt Q09013)", "remaining binding [%]": 92}
{"target": "CDC42BPB (Homo sapiens, UniProt Q9Y5S2)", "remaining binding [%]": 80}
{"target": "BMPR2 (Homo sapiens, UniProt Q13873)", "remaining binding [%]": 100}
{"target": "TAOK3 (Homo sapiens, UniProt Q9H2K8)", "remaining binding [%]": 82}
{"target": "MAPK11 (Homo sapiens, UniProt Q15759)", "remaining binding [%]": 100}
{"target": "MET (Homo sapiens, UniProt P08581, M1250T)", "remaining binding [%]": 100}
{"target": "PLK1 (Homo sapiens, UniProt P53350)", "remaining binding [%]": 82}
{"target": "ERN1 (Homo sapiens, UniProt O75460)", "remaining binding [%]": 100}
{"target": "GSK3B (Homo sapiens, UniProt P49841)", "remaining binding [%]": 95}
{"data": "Sample 4", "Structure (SMILES)": "CC(C)c1nn(-c2c(Cl)cccc2Cl)c2nc(Cc3ccc(OCCO)cc3)[nH]c(=O)c12", "observed": "enzyme activity", "mode": "inhibitor", "tested at": "0.5 µM", "relative to": "control"}
{"target": "TEK (Homo sapiens, UniProt Q02763)", "remaining activity": "100%"}
{"target": "CSNK1G2 (Homo sapiens, UniProt P78368)", "remaining activity": "95.7%"}
{"target": "MERTK (Homo sapiens, UniProt Q12866)", "remaining activity": "96.1%"}
{"target": "LCK (Homo sapiens, UniProt P06239)", "remaining activity": "88.6%"}
{"target": "TBK1 (Homo sapiens, UniProt Q9UHD2)", "remaining activity": "97.7%"}
{"target": "ULK2 (Homo sapiens, UniProt Q8IYT8)", "remaining activity": "86.6%"}
{"target": "MAP3K5 (Homo sapiens, UniProt Q99683)", "remaining activity": "119%"}
{"target": "MST1R (Homo sapiens, UniProt Q04912)", "remaining activity": "97.5%"}
{"target": "FGFR3 (Homo sapiens, UniProt P22607)", "remaining activity": "97%"}
{"target": "ACVR1B (Homo sapiens, UniProt P36896)", "remaining activity": "109%"}
{"target": "TAOK2 (Homo sapiens, UniProt Q9UL54)", "remaining activity": "93.3%"}
{"target": "RPS6KA2 (Homo sapiens, UniProt Q15349)", "remaining activity": "80.8%"}
{"note": "For quick reference, copied from above (sample 4):"}
{"target": "TBK1 (Homo sapiens, UniProt Q9UHD2)", "remaining activity": "97.7%"}
{"target": "ULK2 (Homo sapiens, UniProt Q8IYT8)", "remaining activity": "86.6%"}
{"target": "MAP3K5 (Homo sapiens, UniProt Q99683)", "remaining activity": "119%"}
{"target": "MST1R (Homo sapiens, UniProt Q04912)", "remaining activity": "97.5%"}
